Published values from different studies.
Numbers after ± are the reported error.
F2: Prothrombin (F2, Homo sapiens, UniProt P00734)
Protein AF-9 with DOT1L: Protein AF-9, with DOT1L (Homo sapiens, UniProt P42568)
UniProt P42568, sequence (whole entry, looked up): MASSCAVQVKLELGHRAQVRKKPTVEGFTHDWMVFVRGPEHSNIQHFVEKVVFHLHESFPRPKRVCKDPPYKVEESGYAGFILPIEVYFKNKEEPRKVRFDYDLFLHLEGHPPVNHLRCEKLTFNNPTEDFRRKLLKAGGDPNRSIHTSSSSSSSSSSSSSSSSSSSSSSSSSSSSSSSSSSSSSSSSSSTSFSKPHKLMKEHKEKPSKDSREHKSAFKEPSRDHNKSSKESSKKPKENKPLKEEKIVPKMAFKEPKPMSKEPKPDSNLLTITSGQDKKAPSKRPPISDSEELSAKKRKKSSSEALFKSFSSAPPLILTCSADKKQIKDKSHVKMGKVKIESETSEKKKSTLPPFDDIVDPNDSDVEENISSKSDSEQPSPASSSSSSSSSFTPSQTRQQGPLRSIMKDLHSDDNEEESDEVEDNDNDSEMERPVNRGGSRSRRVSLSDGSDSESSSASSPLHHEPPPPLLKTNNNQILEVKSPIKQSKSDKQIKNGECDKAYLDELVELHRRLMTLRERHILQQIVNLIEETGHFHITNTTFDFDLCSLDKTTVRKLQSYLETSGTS
PSMB5: Proteasome Macropain subunit MB1 (PSMB5, Homo sapiens, UniProt P28074)
UniProt P28074, sequence (whole entry, looked up): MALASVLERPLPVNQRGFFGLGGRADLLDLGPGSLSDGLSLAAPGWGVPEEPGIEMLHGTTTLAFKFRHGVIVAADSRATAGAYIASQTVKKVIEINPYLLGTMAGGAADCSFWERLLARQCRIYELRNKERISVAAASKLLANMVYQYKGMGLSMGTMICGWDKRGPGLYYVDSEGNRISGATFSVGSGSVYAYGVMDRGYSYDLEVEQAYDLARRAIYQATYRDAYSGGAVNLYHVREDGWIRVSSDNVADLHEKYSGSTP
Dihydrofolate reductase type 2: Dihydrofolate reductase type 2 (Escherichia coli, UniProt P00383)
UniProt P00383, sequence (whole entry, looked up): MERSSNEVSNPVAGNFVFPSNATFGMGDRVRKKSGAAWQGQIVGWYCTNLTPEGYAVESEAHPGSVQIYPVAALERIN
CSNK1D: Casein kinase I isoform delta (CSNK1D, Homo sapiens, UniProt P48730)
UniProt P48730, sequence (whole entry, looked up): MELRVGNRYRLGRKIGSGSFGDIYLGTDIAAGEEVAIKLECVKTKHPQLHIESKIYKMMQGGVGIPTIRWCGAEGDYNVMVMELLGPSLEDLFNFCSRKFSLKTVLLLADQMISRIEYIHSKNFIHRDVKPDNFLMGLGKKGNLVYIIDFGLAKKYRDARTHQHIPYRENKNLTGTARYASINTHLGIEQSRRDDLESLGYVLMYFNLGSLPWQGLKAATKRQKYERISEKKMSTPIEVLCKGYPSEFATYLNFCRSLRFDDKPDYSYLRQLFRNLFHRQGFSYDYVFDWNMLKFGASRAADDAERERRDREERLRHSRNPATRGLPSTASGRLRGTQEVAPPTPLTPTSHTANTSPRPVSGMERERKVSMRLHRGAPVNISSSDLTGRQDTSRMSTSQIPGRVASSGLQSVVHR
UniProt P37231, sequence (whole entry, looked up): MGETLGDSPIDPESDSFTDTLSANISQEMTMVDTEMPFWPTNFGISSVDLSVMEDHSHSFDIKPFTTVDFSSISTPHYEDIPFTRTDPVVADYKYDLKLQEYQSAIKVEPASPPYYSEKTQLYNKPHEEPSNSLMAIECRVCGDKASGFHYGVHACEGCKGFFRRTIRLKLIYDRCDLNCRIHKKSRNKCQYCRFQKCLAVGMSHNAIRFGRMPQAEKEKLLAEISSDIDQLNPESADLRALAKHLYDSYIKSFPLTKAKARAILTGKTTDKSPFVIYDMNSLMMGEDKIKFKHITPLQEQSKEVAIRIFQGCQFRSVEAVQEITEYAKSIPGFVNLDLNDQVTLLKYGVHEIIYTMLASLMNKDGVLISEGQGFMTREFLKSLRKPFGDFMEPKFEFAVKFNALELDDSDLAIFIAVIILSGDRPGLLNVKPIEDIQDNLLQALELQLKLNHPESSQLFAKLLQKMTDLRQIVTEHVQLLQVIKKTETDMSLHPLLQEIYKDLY
UniProt Q15717, sequence (whole entry, looked up): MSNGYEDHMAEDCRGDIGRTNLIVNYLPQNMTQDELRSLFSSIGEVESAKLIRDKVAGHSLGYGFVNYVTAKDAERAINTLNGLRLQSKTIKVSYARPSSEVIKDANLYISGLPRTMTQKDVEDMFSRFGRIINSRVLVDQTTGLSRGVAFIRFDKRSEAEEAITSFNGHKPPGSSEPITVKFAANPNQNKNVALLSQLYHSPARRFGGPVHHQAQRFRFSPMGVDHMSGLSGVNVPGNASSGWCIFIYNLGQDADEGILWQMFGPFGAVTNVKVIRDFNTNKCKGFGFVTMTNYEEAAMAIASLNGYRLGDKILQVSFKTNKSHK
UniProt P07949, sequence (whole entry, looked up): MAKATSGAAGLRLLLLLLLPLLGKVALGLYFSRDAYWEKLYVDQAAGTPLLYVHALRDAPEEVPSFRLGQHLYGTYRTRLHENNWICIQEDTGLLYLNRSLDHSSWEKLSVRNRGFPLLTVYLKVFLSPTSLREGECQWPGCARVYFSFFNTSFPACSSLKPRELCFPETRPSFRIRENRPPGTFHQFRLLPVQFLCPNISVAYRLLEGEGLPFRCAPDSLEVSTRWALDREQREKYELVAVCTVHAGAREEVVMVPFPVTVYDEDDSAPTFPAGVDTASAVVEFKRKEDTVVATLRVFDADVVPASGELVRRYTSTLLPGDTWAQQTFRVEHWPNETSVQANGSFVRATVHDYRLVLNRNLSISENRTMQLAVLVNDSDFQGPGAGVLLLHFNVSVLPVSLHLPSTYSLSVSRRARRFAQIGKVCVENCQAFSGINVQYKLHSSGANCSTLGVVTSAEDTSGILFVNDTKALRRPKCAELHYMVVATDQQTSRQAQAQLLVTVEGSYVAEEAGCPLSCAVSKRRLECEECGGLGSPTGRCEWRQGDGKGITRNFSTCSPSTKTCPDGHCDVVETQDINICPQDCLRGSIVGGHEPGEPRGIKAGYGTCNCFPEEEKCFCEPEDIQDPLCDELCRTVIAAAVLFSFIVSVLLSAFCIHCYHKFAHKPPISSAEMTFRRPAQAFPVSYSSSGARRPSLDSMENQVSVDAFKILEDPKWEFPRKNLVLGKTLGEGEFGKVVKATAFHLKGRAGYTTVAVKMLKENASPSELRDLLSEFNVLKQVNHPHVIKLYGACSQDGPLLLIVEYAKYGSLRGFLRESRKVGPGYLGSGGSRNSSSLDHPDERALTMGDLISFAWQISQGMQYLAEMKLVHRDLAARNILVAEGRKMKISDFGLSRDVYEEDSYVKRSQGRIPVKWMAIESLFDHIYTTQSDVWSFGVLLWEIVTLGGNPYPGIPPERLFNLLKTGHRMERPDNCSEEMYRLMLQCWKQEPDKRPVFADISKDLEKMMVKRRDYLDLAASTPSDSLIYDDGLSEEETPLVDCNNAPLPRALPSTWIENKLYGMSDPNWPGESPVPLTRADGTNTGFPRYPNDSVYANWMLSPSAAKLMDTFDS
UniProt P10275, sequence (whole entry, looked up): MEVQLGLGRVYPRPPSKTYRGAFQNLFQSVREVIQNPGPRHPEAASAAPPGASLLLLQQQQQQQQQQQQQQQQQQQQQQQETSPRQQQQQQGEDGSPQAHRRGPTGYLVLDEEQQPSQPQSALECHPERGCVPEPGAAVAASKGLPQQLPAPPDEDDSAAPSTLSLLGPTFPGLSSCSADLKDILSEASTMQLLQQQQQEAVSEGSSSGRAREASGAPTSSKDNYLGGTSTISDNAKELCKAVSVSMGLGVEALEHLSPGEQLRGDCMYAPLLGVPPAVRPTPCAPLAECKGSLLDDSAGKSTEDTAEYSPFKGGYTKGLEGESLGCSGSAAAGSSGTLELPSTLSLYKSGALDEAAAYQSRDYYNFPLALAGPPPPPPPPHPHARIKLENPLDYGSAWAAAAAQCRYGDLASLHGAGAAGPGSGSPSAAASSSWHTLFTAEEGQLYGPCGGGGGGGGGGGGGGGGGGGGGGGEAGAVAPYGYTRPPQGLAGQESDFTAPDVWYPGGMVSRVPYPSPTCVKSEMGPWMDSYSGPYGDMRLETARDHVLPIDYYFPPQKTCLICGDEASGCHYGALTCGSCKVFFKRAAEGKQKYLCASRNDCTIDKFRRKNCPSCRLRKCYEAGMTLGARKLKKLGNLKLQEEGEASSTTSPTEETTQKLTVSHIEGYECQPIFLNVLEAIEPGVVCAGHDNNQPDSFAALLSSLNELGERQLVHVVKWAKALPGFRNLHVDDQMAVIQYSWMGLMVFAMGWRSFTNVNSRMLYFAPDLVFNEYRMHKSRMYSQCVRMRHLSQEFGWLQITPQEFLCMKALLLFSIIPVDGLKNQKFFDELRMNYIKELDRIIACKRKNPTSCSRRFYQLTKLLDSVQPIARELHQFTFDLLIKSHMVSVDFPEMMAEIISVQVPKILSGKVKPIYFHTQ
UniProt P20618, sequence (whole entry, looked up): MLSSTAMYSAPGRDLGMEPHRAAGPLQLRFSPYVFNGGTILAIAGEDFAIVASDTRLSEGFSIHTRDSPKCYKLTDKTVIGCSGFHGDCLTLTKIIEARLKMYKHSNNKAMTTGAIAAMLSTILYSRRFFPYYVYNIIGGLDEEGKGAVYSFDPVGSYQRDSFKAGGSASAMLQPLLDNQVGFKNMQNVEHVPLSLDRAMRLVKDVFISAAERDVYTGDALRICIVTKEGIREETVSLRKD
UniProt Q13882, sequence (whole entry, looked up): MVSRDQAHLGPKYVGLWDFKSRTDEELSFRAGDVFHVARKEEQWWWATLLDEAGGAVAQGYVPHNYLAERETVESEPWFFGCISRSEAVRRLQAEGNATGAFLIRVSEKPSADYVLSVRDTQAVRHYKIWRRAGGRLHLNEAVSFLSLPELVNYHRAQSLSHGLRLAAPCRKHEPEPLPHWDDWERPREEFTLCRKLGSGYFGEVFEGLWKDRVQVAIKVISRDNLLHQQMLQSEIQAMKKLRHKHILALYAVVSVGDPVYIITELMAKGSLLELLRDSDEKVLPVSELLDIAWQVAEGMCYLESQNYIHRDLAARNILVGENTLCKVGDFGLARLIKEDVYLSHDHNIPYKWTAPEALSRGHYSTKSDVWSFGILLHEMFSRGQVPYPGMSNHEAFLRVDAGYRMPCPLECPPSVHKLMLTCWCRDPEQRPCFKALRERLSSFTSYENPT

Compound	tested on	test	system	setting	quantity	value
Cc1cnn(Cc2ccc(Cn3cc(C(=O)NCc4ccc(CN)cc4)cn3)cc2)c1	F2	–	–	–	IC50	> 40 µM
c1cc(N2CCCC2)ccc1-c1cc2ncc(OCC3CCNCC3)nc2cc1-c1ccc(N2CCCC2)cc1	Protein AF-9 with DOT1L	DOT1L binding, AlphaLISA	–	–	IC50	0.56 ± 0.032 µM
Cc1ncc(C(=O)N[C@@H](CC(C)C)C(=O)N[C@@H](CCC2CCCCC2)C(=O)N[C@H](/C=C/S(C)(=O)=O)Cc2ccc(CN)cc2)s1	PSMB5	inhibitor, competitive ABPP	Raji cell lysate	constitutive proteasome β5c	IC50	3.63 µM
c1cc(-c2ccc3ncc(OCC4CCNCC4)nc3c2)cc(N2CCCC2)c1	Protein AF-9 with DOT1L	DOT1L binding, AlphaLISA	–	–	IC50	5.7 µM
CCc1cc2c(N3CCN(c4nncs4)CC3)ncnc2s1	HBL-1	–	–	1 µM, 120 h	viability	100%
COc1ccc(F)cc1C(=O)NCc1ccc(-c2nn([C@@H](C)C(F)(F)F)c(N)c2C(N)=O)cc1	Protein-tyrosine kinase 6 (PTK6, Homo sapiens, UniProt Q13882)	binding, NanoBRET target engagement	HEK293	with: tracer	IC50	0.36 ± 0.199 µM
CC(C)[C@H](C(=O)Nc1ccc(C(=O)NO)cc1)c1ccccc1	HBL-1	–	–	0.5 µM, 120 h	viability	7.47%
CC(C)N(CCC(=O)c1ccc2ccccc2c1)Cc1ccccc1	Protein-glutamine gamma-glutamyltransferase (TGM2, Homo sapiens, UniProt P21980)	enzyme activity, inhibitor	–	with: DTT 10 mM	IC50	3 ± 0.5 µM
COc1ccc([N+](=O)[O-])cc1C(=O)Nc1ccc(CCF)cc1	Peroxisome proliferator-activated receptor gamma, with RXR (PPARG, Homo sapiens, UniProt P37231)	reporter gene, antagonist, PPRE-TK-luciferase	transfected HepG2	24 h, with: GW1929	IC50	> 2 µM
COc1cc(-c2cc(C(C)=O)n3ccccc23)cc(OC)c1Cn1ccnc1	Bromodomain-containing protein 9 (BRD9, Homo sapiens, UniProt Q9H8M2)	inhibitor	–	–	IC50	0.0025 µM
CCOC(=O)/C=C/C(=O)N(CC(C)C)NC(=O)[C@H](CC(C)C)NC(=O)[C@H](CC(C)C)NC(=O)OCc1ccccc1	Proteasome component C5/PSMB5 (Homo sapiens, UniProt P20618+P28074)	chymotrypsin-like activity, inhibitor	human 20S proteasome	with: Suc-LLVY-AMC 100 µM	IC50	3.7 ± 2.6 µM
Cc1ncc(C(=O)N[C@@H](CC2CCC(C)CC2)C(=O)N[C@@H](CC(C)C)C(=O)N[C@H](/C=C/S(C)(=O)=O)Cc2ccc(CN)cc2)s1 (stereo partly drawn)	PSMB5	competitive ABPP	Raji cell lysate	–	IC50	> 10 µM
[Fe+2].c1ccc(CN(CCN(Cc2ccccn2)Cc2ccccn2)Cc2ccccn2)cc1	PSMB5	chymotrypsin-like activity, inhibitor, purified 20S proteasome	–	30 min, pH 7.4, 37 °C, with: 20 µM Suc-LLVY-AMC	IC50	4 µM
COC(=O)c1ccc2nc(-c3ccc(O)cc3)[nH]c2c1	Dihydrofolate reductase type 2	enzyme activity	–	pH 7	IC50	> 30 µM
COc1ccnc(CNC(=O)c2cn(Cc3ccc(Cn4ccccc4=O)cc3)nc2C2CC2)c1F	F2	–	–	–	IC50	35 µM
Fc1ccc(-c2nc(-c3c(F)cccc3Br)[nH]c2-c2ccncc2)cc1	CSNK1D	inhibitor	–	–	IC50	0.0074 ± 0.0017 µM
O=C1C=Cc2c(c(-c3ccsc3)cn2S(=O)(=O)c2ccccc2)C1=O	ELAV-like protein 1, RRM1-RRM2 domains (ELAVL1, Homo sapiens, UniProt Q15717)	HuR-RNA complex formation, REMSA	–	with: 1 nM labelled RNA probe	IC50	6.62 µM
Cc1ccccc1-c1nc(-c2ccc(F)cc2)c(-c2ccncc2)[nH]1	CSNK1D	inhibitor	–	–	IC50	0.0381 ± 0.0062 µM
COC(=O)c1ccc2nc(-c3ccc(OCCCN4CCN(C)CC4)c(Br)c3)[nH]c2c1	Dihydrofolate reductase type 2	enzyme activity	–	pH 7	IC50	> 630 µM
Nc1nc(SCC(=O)Nc2ccc3c(c2)OCO3)[nH]c(=O)c1NC(=O)c1ccc(F)c(F)c1	Proto-oncogene tyrosine-protein kinase receptor Ret (RET, Homo sapiens, UniProt P07949)	kinase activity, inhibitor	–	replicate three, with: 1 µM ATP, poly(Glu,Tyr)	IC50	171 µM
O=C1NC(CF)(CF)C(=O)N1c1ccc(F)c(C(F)(F)F)c1	Androgen receptor (AR, Homo sapiens, UniProt P10275)	reporter gene, antagonist	LAPC4	24 h, with: DHT 10 nM	IC50	9 µM

A few entries again:
Compound	tested on	test	system	setting	quantity	value
Cc1ncc(C(=O)N[C@@H](CC2CCC(C)CC2)C(=O)N[C@@H](CC(C)C)C(=O)N[C@H](/C=C/S(C)(=O)=O)Cc2ccc(CN)cc2)s1 (stereo partly drawn)	PSMB5	competitive ABPP	Raji cell lysate	–	IC50	> 10 µM
[Fe+2].c1ccc(CN(CCN(Cc2ccccn2)Cc2ccccn2)Cc2ccccn2)cc1	PSMB5	chymotrypsin-like activity, inhibitor, purified 20S proteasome	–	30 min, pH 7.4, 37 °C, with: 20 µM Suc-LLVY-AMC	IC50	4 µM
COC(=O)c1ccc2nc(-c3ccc(O)cc3)[nH]c2c1	Dihydrofolate reductase type 2	enzyme activity	–	pH 7	IC50	> 30 µM
